Assay results gathered from unrelated publications.
Protocols differ between the studies behind these lines.
UniProt P23219, sequence (whole entry, looked up): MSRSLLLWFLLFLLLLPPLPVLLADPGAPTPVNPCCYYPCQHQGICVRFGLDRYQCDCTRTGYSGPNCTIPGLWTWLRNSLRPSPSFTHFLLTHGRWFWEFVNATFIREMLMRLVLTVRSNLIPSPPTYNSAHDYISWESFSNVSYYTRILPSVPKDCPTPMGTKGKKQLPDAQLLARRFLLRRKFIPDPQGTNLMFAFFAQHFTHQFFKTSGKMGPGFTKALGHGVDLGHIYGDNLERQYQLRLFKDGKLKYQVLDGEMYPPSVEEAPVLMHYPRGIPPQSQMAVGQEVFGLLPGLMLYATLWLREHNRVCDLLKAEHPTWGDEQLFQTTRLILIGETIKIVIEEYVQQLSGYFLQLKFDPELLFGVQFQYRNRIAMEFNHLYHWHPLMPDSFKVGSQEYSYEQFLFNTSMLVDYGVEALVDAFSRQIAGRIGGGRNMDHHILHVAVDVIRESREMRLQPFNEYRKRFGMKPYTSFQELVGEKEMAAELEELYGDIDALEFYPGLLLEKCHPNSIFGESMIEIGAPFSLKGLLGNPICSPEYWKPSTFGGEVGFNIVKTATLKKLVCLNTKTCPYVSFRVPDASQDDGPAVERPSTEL
UniProt Q6JQN1, sequence (whole entry, looked up): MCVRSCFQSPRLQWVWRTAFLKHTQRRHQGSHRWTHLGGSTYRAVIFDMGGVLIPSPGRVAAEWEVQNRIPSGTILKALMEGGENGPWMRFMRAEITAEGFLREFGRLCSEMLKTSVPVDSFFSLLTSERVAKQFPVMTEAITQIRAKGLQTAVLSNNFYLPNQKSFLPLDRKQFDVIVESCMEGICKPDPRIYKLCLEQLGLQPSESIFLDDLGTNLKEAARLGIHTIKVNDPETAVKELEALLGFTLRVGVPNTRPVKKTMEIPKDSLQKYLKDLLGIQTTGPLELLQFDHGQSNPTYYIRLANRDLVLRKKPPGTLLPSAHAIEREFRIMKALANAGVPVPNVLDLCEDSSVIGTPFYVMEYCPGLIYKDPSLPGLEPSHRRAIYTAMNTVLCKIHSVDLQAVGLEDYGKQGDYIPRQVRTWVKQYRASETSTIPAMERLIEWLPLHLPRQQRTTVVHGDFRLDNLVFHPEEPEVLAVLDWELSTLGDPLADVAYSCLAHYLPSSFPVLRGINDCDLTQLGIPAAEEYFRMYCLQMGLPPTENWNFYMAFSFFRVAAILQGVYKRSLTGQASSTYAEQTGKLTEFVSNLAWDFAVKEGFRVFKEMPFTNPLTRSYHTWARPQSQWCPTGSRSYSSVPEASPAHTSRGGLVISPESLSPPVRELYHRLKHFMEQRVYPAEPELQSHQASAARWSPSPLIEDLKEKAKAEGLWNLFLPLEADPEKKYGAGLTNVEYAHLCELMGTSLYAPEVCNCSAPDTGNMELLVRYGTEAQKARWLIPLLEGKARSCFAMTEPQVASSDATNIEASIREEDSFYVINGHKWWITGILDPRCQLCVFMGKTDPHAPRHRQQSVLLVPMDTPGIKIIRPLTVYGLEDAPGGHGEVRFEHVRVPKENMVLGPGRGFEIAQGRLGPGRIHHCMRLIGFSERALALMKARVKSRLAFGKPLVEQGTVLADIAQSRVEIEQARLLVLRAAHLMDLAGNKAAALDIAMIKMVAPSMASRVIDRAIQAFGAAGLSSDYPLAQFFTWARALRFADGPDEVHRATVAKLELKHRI

CO[C@H]1C[C@@H]2CC[C@@H](C)[C@@](O)(O2)C(=O)C(=O)N2CCCC[C@H]2C(=O)O[C@H]([C@H](C)C[C@@H]2CC[C@@H](OC(=O)NCCOCCOCCOCCOCCOCCOCCOCCOCCC(=O)N3CCc4cc(Cn5nc(-c6ccc7oc(N)nc7c6)c6c(N)ncnc65)ccc4C3)[C@H](OC)C2)C[C@@H](O)[C@H](C)/C=C(\C)[C@@H](O)[C@@H](OC)C(=O)[C@H](C)C[C@H](C)/C=C/C=C/C=C/1C — abdominal pain incidence (patients with advanced solid tumours; intravenous, 8 mg weekly, grade 3 or higher): 6.3%
CC(=O)O[C@H]1C[C@H](O[C@H]2[C@@H](O)C[C@H](O[C@H]3[C@@H](O)C[C@H](O[C@H]4CC[C@@]5(C)[C@H](CC[C@@H]6[C@@H]5C[C@@H](O)[C@]5(C)[C@@H](C7=CC(=O)OC7)CC[C@]65O)C4)O[C@@H]3C)O[C@@H]2C)O[C@H](C)[C@H]1O[C@@H]1O[C@H](CO)[C@@H](O)[C@H](O)[C@H]1O — CC50 (primary human fibroblasts uninfected; live/dead staining; 48 h, capped at 10.00 µM): > 10 µM
CC(C)(C)c1cnc(CSc2cnc(NC(=O)C3CCN(CC(=O)NCCOCCOCCOCCNc4cccc5c4C(=O)N(C4CCC(=O)NC4=O)C5=O)CC3)s2)o1 (stereo not drawn) — CC50 (human cells): > 20 µM
O=c1c2ccccc2sn1-c1ccc(F)c(F)c1 — CC50 (TZM-bl; viability): 33 µM
C[C@H]1CN(c2n[nH]c3nc(N[C@H]4CC[C@H](NS(=O)(=O)CCC(F)(F)F)CC4)ncc23)CCO1 — relative abundance (ACAD10 (Homo sapiens, UniProt Q6JQN1); inhibitor, Kinobeads competition profiling; 20 µM; relative to: vehicle): 1.14
O=c1c2ccccc2[se]n1-c1ccccc1 — CC50 (human cells; cytotoxicity; 48 (unit not given)): 25 µM
COc1cc(Nc2ncc(F)c(Nc3ccc4c(n3)NC(=O)C(C)(C)O4)n2)cc(OC)c1OC — IC50 (PTGS1 (Homo sapiens, UniProt P23219)): > 10 µM
COc1cc2c(Oc3ccc4[nH]c(C)cc4c3F)ccnc2cc1OCC1(N)CC1 — grade 1 or 2 Myalgia (paediatric recurrent refractory sarcoma; 8 mg/kg): 13.3%
S=C(NCc1ccc2c(c1)OCO2)N1CCN(c2ncnc3c2oc2ccccc23)CC1 — CC50 (human cells): 7.2 µM
CC(C)C[C@H](NC(=O)OCc1ccccc1)C(=O)N[C@@H](CC(C)C)C(=O)N[C@@H](CC1CCNC1=O)C(=O)C(=O)NC1CC1 (stereo partly drawn) — CC50 (HCT-8; 5 (unit not given)): > 250 µM
CC(=O)NC(c1ccc(C(C)C)cc1)c1ccc2cccnc2c1O (stereo not drawn) — CC50 (human cells): > 20 µM
C[C@]1(CO)Cc2ncn(-c3ccc(C#N)c(Cl)c3)c2C(=O)O1 — subjects with drug-related somnolence (human; 80 mg multiple doses, fasted): 11.1%
COc1ccc(N2C(=O)N(c3c(C)cccc3Cl)Cc3cnc(Nc4ccc(C5CCN(C)CC5)cc4OC)nc32)nc1 — inhibition (FLT3 (Homo sapiens, UniProt P36888); kinase activity; 0.5 µM): 25%
CC[C@H](C)[C@H](NC(=O)[C@H](Cc1ccccc1)NC(=O)[C@H](CCC(=O)O)NC(=O)[C@H](CCCNC(=N)N)NC(=O)[C@H](C)NC(=O)[C@H](C)NC(=O)[C@H](CCC(N)=O)NC(=O)[C@H](CCC(=O)O)NC(=O)[C@H](CCC(=O)O)NC(=O)[C@H](CC(C)C)NC(=O)[C@H](Cc1ccc(O)cc1)NC(=O)[C@H](CO)NC(=O)[C@H](CO)NC(=O)[C@@H](NC(=O)[C@H](CC(=O)O)NC(=O)[C@H](CO)NC(=O)[C@@H](NC(=O)[C@H](Cc1ccccc1)NC(=O)[C@@H](NC(=O)CNC(=O)[C@H](CCC(=O)O)NC(=O)[C@H](C)NC(=O)CCc1c[nH]cn1)[C@@H](C)O)[C@@H](C)O)C(C)C)C(=O)N[C@@H](C)C(=O)N[C@@H](Cc1c[nH]c2ccccc12)C(=O)N[C@@H](CC(C)C)C(=O)N[C@H](C(=O)N[C@@H](CCCNC(=N)N)C(=O)NCC(=O)N[C@@H](CCCNC(=N)N)C(=O)N[C@@H](CCCCNC(=O)COCCOCCNC(=O)COCCOCCNC(=O)CC[C@H](NC(=O)CCCCCCCCCCCCCCCCC(=O)O)C(=O)O)C(=O)NCC(=O)NCC(=O)N[C@@H](CO)C(=O)N[C@@H](CCCCNc1c(NCCCCCN(O)C(=O)CCC(=O)NCCCCCN(O)C(=O)CCC(=O)NCCCCCN(O)C(C)=O)c(=O)c1=O)C(=O)O)C(C)C [zirconium-89 labelled] — tissue uptake (gamma counting; rat, skin at injection site; intravenous, 3 nmol/kg, 4 h): 0.25 %ID/g
COc1cccc(Nc2nc(NCC3CCCO3)c3ccccc3n2)c1 (stereo not drawn) — CC50 (human cells): 16.3 µM
COC(=O)C1CCN(C(=O)c2ccc(N(C)Cc3cnc4nc(N)nc(N)c4n3)cc2)CC1 — CC50 (THP-1-derived macrophages; MTT): > 100 µM
CC(=O)N[C@H](C(=O)N1C[C@H](O)C[C@H]1C(=O)NCc1ccc(-c2scnc2C)cc1)C(C)(C)C — CC50 (SNU-C4 HiBiT-PXR knock-in; CellTiter-Glo; 72 h, 10% FBS): > 30 µM
Nc1ccn(C[C@@H](CO)OCP(=O)(O)O)c(=O)n1 — CC50 (human cells; 3 (unit not given)): > 317 µM
CN1CC[C@@H](c2c(O)cc(O)c3c(=O)cc(-c4ccc(C(F)(F)F)cc4Cl)oc23)[C@@H]1CO — patients with adverse event (measured: Thrombocytopenia; relapsed or refractory haematological malignancies; oral, dose not given, grade 3 to 4, all arms): 7.5%
C[S+](C)[O-] — CC50 (Vero-B4; MTS; 4 days): 2.4%
COC(=O)C1CCN(C(=O)c2ccc(NCc3cnc4nc(N)nc(N)c4n3)cc2)CC1 — CC50 (THP-1-derived macrophages; MTT): > 100 µM
O=C(Cc1c(F)cccc1Cl)Nc1nc(-c2ccncc2)cs1 — CC50 (human cells): > 20 µM
COc1cc(-n2sc3ccccc3c2=O)ccc1F — CC50 (TZM-bl; viability): > 100 µM
CN(C)CCCSc1ccccc1NC(=O)/C=C/c1ccccc1 — CC50 (human cells; cytotoxicity; 48 (unit not given)): 67 µM

Excerpt of the above:
COc1ccc(N2C(=O)N(c3c(C)cccc3Cl)Cc3cnc(Nc4ccc(C5CCN(C)CC5)cc4OC)nc32)nc1 — inhibition (FLT3 (Homo sapiens, UniProt P36888); kinase activity; 0.5 µM): 25%
CC[C@H](C)[C@H](NC(=O)[C@H](Cc1ccccc1)NC(=O)[C@H](CCC(=O)O)NC(=O)[C@H](CCCNC(=N)N)NC(=O)[C@H](C)NC(=O)[C@H](C)NC(=O)[C@H](CCC(N)=O)NC(=O)[C@H](CCC(=O)O)NC(=O)[C@H](CCC(=O)O)NC(=O)[C@H](CC(C)C)NC(=O)[C@H](Cc1ccc(O)cc1)NC(=O)[C@H](CO)NC(=O)[C@H](CO)NC(=O)[C@@H](NC(=O)[C@H](CC(=O)O)NC(=O)[C@H](CO)NC(=O)[C@@H](NC(=O)[C@H](Cc1ccccc1)NC(=O)[C@@H](NC(=O)CNC(=O)[C@H](CCC(=O)O)NC(=O)[C@H](C)NC(=O)CCc1c[nH]cn1)[C@@H](C)O)[C@@H](C)O)C(C)C)C(=O)N[C@@H](C)C(=O)N[C@@H](Cc1c[nH]c2ccccc12)C(=O)N[C@@H](CC(C)C)C(=O)N[C@H](C(=O)N[C@@H](CCCNC(=N)N)C(=O)NCC(=O)N[C@@H](CCCNC(=N)N)C(=O)N[C@@H](CCCCNC(=O)COCCOCCNC(=O)COCCOCCNC(=O)CC[C@H](NC(=O)CCCCCCCCCCCCCCCCC(=O)O)C(=O)O)C(=O)NCC(=O)NCC(=O)N[C@@H](CO)C(=O)N[C@@H](CCCCNc1c(NCCCCCN(O)C(=O)CCC(=O)NCCCCCN(O)C(=O)CCC(=O)NCCCCCN(O)C(C)=O)c(=O)c1=O)C(=O)O)C(C)C [zirconium-89 labelled] — tissue uptake (gamma counting; rat, skin at injection site; intravenous, 3 nmol/kg, 4 h): 0.25 %ID/g
CC(C)C[C@H](NC(=O)OCc1ccccc1)C(=O)N[C@@H](CC(C)C)C(=O)N[C@@H](CC1CCNC1=O)C(=O)C(=O)NC1CC1 (stereo partly drawn) — CC50 (HCT-8; 5 (unit not given)): > 250 µM
